Measured values of several laboratories.
Protocols differ between the studies behind these lines. Numbers after ± are the reported error.
Temperature: 37 °C

For `CC(=O)N[C@H](CCCCN)C(=O)N[C@H](CC(C)C)C(=O)N[C@H](CCCN)C(=O)N[C@H](CO)C(=O)N[C@H](CC(C)C)C(=O)N[C@H](CC(C)C)C(=O)N[C@H](CCCN)C(=O)N[C@@H](C(=O)N[C@H](CC(C)C)C(=O)N[C@H](CO)C(=O)N[C@H](CCCN)C(=O)N[C@H](C)C(=O)N[C@H](C)C(=O)N[C@H](C)C(=O)N[C@H](C)C(=O)N[C@H](C)C(=O)N[C@H](CC(C)C)C(=O)N[C@H](CCCN)C(=O)N[C@@H](C(=O)N[C@H](CC(C)C)C(=O)N[C@H](CC(C)C)C(=O)N[C@H](CCCN)C(=O)N[C@H](C)C(=O)N[C@H](CC(C)C)C(=O)N[C@H](CO)C(=O)N[C@H](CCCN)C(N)=O)[C@H](C)O)[C@H](C)O`, the HC50 was 2.3 µg/mL (human erythrocytes; 18 h, pH 7.4, 50% hemolysis).
For `O=[N+]([O-])[O-].O=[N+]([O-])[O-].O=[N+]([O-])[O-].O=[N+]([O-])[O-].[N-]=[N+]=NCCc1cc(CN(Cc2ccccn2)Cc2ccccn2)c(O)c(CN(Cc2ccccn2)Cc2ccccn2)c1.[Zn+2].[Zn+2]`, the HC50 was 95 ± 4 µM (haemolysis; human red blood cells; 3 h).
For `CC[C@H](C)[C@@H]1NC(=O)[C@H](CCCCN)NC(=O)[C@H](CCCCN)NC(=O)[C@H](Cc2ccc(O)cc2)NC(=O)[C@H](CC(C)C)NC(=O)[C@@H]2CCCN2C(=O)[C@H](C)NC(=O)CNC(=O)CNC(=O)[C@H](CO)NC(=O)CNC(=O)CNC(=O)[C@H](CO)NC(=O)[C@H](CCC(=O)O)NC(=O)[C@H](CC(C)C)NC(=O)[C@H](CC(C)C)NC(=O)[C@H](CCCCN)NC(=O)[C@H](CCCCN)NC(=O)[C@H]([C@@H](C)CC)NC(=O)[C@H]([C@@H](C)CC)NC(=O)[C@H](CCCCN)NC(=O)[C@H](CCCCN)NC(=O)[C@H](Cc2ccc(O)cc2)NC(=O)[C@H](CC(C)C)NC(=O)[C@@H]2CCCN2C(=O)CNC(=O)CNC(=O)CSC[C@@H](C(N)=O)NC(=O)[C@H](CC(C)C)NC(=O)[C@H](CCCCN)NC(=O)[C@H](CCCCN)NC(=O)[C@H]([C@@H](C)CC)NC1=O`, the HC50 was over 64 µM (human red blood cells; 1 h).
For `CC(C)C[C@H](NC(=O)[C@H](CC(N)=O)NC(=O)[C@H](CCCNC(=N)N)NC(=O)[C@@H](CC(C)C)NC(=O)[C@H](Cc1ccc(-c2ccccc2)cc1)NC(=O)[C@H](CC(=O)O)NC(=O)[C@H](C)NC(=O)[C@@H](CC(C)C)NC(=O)[C@H](CCCNC(=N)N)NC(=O)[C@H](CCC(N)=O)NC(=O)[C@@H](NC(=O)[C@@H](CC(C)C)NC(=O)[C@H](CCCNC(=N)N)NC(=O)[C@H](C)NC(=O)[C@H](Cc1ccc(-c2ccccc2)cc1)NC(=O)CN)C(C)C)C(=O)N[C@H](C(N)=O)C(C)C`, the HC50 was under 12.5 µM (human red blood cells; 1 h).
`CC[C@H](C)[C@H](NC(=O)[C@H](CCCCN)NC(=O)[C@H](CCCCN)NC(=O)[C@H](C)NC(=O)[C@@H](NC(=O)[C@H](C)NC(=O)[C@H](CC(C)C)NC(=O)[C@H](CC(C)C)NC(=O)[C@H](C)NC(=O)[C@H](CCCCN)NC(=O)[C@H](CC(C)C)NC(=O)[C@H](CC(N)=O)NC(=O)[C@@H](N)CC(C)C)C(C)C)C(=O)N[C@@H](CC(C)C)C(N)=O` has an HC50 of 40.1 µM (horse erythrocytes; 2 h).
For `CC(C)C[C@@H](NC(=O)[C@@H](C)NC(=O)[C@@H](CCCCN)NC(=O)[C@H](N)CCCCN)C(=O)N[C@H](C)C(=O)N[C@H](Cc1c[nH]cn1)C(=O)N[C@H](C)C(=O)N[C@H](CC(C)C)C(=O)N[C@H](CCCCN)C(=O)N[C@H](CCCCN)C(=O)N[C@H](Cc1c[nH]c2ccccc12)C(=O)N[C@H](CC(C)C)C(=O)N1CCC[C@@H]1C(=O)N[C@H](C)C(=O)N[C@H](CC(C)C)C(=O)N[C@H](CCCCN)C(=O)N[C@H](CCCCN)C(=O)N[C@H](CC(C)C)C(=O)N[C@H](C)C(=O)N[C@H](Cc1c[nH]cn1)C(=O)N[C@H](C)C(=O)N[C@H](CC(C)C)C(=O)N[C@H](C)C(=O)N[C@H](CCCCN)C(=O)N[C@H](CCCCN)C(N)=O`, the HC50 was 79.6 ± 2.8 µM (haemolysis; human erythrocytes; 30 min, pH 7.4).
For `CC[C@H](C)[C@@H]1NC(=O)[C@H](CCCCN)NC(=O)[C@H](CCCCN)NC(=O)[C@H](Cc2ccc(O)cc2)NC(=O)[C@H](CC(C)C)NC(=O)[C@@H]2CCCN2C(=O)[C@H](C)NC(=O)CNC(=O)CNC(=O)[C@H](CO)NC(=O)CNC(=O)CNC(=O)[C@H](CO)NC(=O)[C@H]([C@@H](C)O)NC(=O)[C@H](CC(C)C)NC(=O)[C@H](CC(C)C)NC(=O)[C@H](C)NC(=O)[C@H](Cc2c[nH]c3ccccc23)NC(=O)[C@H](Cc2ccc(O)cc2)NC(=O)[C@H](Cc2c[nH]cn2)NC(=O)[C@H](CCC(=O)O)NC(=O)[C@H](Cc2ccccc2)NC(=O)[C@H]([C@@H](C)O)NC(=O)[C@H](CC(C)C)NC(=O)[C@@H]2CCCN2C(=O)CNC(=O)CNC(=O)CSC[C@@H](C(N)=O)NC(=O)[C@H](CC(C)C)NC(=O)[C@H](CCCCN)NC(=O)[C@H](CCCCN)NC(=O)[C@H]([C@@H](C)CC)NC1=O`, the HC50 was over 64 µM (human red blood cells; 1 h).
For `CC(C)C[C@@H](NC(=O)[C@@H](C)NC(=O)[C@@H](CCCCN)NC(=O)[C@@H](CC(C)C)NC(=O)[C@@H](C)NC(=O)[C@H]1CCCN1C(=O)[C@@H](CC(C)C)NC(=O)[C@@H](Cc1c[nH]c2ccccc12)NC(=O)[C@@H](CCCCN)NC(=O)[C@@H](C)NC(=O)[C@@H](CC(C)C)NC(=O)[C@@H](C)NC(=O)[C@@H](Cc1c[nH]cn1)NC(=O)[C@@H](CCCCN)NC(=O)[C@@H](CC(C)C)NC(=O)[C@@H](C)NC(=O)[C@@H](CCCCN)NC(=O)[C@H](N)CCCCN)C(=O)N[C@H](C)C(=O)N[C@H](Cc1c[nH]cn1)C(=O)N[C@H](CCCCN)C(=O)N[C@H](CC(C)C)C(=O)N[C@H](C)C(=O)N[C@H](CCCCN)C(=O)N[C@H](CCCCN)C(N)=O`, the HC50 was 185 ± 18.6 µM (haemolysis; human erythrocytes; 30 min, pH 7.4).
For `CC[C@H](C)[C@@H]1NC(=O)[C@H](CCCCN)NC(=O)[C@H](CCCCN)NC(=O)[C@H](C)NC(=O)[C@H](C(C)C)NC(=O)[C@H](C)NC(=O)[C@H](CC(C)C)NC(=O)[C@H](CC(C)C)NC(=O)[C@H](C)NC(=O)[C@H](CCCCN)NC(=O)[C@H](CC(C)C)NC(=O)[C@H](CC(N)=O)NC(=O)[C@H](CC(C)C)NC(=O)[C@@H](N)CSSC[C@@H](C(N)=O)NC(=O)[C@H](CC(C)C)NC1=O`, the HC50 was 9.19 µM (horse erythrocytes; 2 h).
`CC(C)C[C@@H](NC(=O)[C@H]1CCCN1C(=O)[C@@H](CC(C)C)NC(=O)[C@@H](Cc1c[nH]c2ccccc12)NC(=O)[C@@H](CCCCN)NC(=O)[C@@H](CCCCN)NC(=O)[C@@H](C)NC(=O)[C@@H](CC(C)C)NC(=O)[C@@H](C)NC(=O)[C@@H](CC(C)C)NC(=O)[C@@H](C)NC(=O)[C@@H](CC(C)C)NC(=O)[C@@H](CCCCN)NC(=O)[C@H](N)CCCCN)C(=O)N[C@H](C)C(=O)N[C@H](CCCCN)C(=O)N[C@H](CCCCN)C(=O)N[C@H](CC(C)C)C(=O)N[C@H](C)C(=O)N[C@H](CC(C)C)C(=O)N[C@H](C)C(=O)N[C@H](CC(C)C)C(=O)N[C@H](C)C(=O)N[C@H](CCCCN)C(=O)N[C@H](CCCCN)C(N)=O` has an HC50 of 58.6 ± 10.4 µM (haemolysis; human erythrocytes; 30 min, pH 7.4).
With `CCCCCCCCc1cc(CN(Cc2ccccn2)Cc2ccccn2)c(O)c(CN(Cc2ccccn2)Cc2ccccn2)c1.O=[N+]([O-])[O-].O=[N+]([O-])[O-].O=[N+]([O-])[O-].O=[N+]([O-])[O-].[Zn+2].[Zn+2]` the HC50 was 42 ± 3 µM (haemolysis; human red blood cells; 3 h).

A few entries again:
For `CC(C)C[C@@H](NC(=O)[C@@H](C)NC(=O)[C@@H](CCCCN)NC(=O)[C@H](N)CCCCN)C(=O)N[C@H](C)C(=O)N[C@H](Cc1c[nH]cn1)C(=O)N[C@H](C)C(=O)N[C@H](CC(C)C)C(=O)N[C@H](CCCCN)C(=O)N[C@H](CCCCN)C(=O)N[C@H](Cc1c[nH]c2ccccc12)C(=O)N[C@H](CC(C)C)C(=O)N1CCC[C@@H]1C(=O)N[C@H](C)C(=O)N[C@H](CC(C)C)C(=O)N[C@H](CCCCN)C(=O)N[C@H](CCCCN)C(=O)N[C@H](CC(C)C)C(=O)N[C@H](C)C(=O)N[C@H](Cc1c[nH]cn1)C(=O)N[C@H](C)C(=O)N[C@H](CC(C)C)C(=O)N[C@H](C)C(=O)N[C@H](CCCCN)C(=O)N[C@H](CCCCN)C(N)=O`, the HC50 was 79.6 ± 2.8 µM (haemolysis; human erythrocytes; 30 min, pH 7.4).
For `CC(C)C[C@@H](NC(=O)[C@@H](C)NC(=O)[C@@H](CCCCN)NC(=O)[C@@H](CC(C)C)NC(=O)[C@@H](C)NC(=O)[C@H]1CCCN1C(=O)[C@@H](CC(C)C)NC(=O)[C@@H](Cc1c[nH]c2ccccc12)NC(=O)[C@@H](CCCCN)NC(=O)[C@@H](C)NC(=O)[C@@H](CC(C)C)NC(=O)[C@@H](C)NC(=O)[C@@H](Cc1c[nH]cn1)NC(=O)[C@@H](CCCCN)NC(=O)[C@@H](CC(C)C)NC(=O)[C@@H](C)NC(=O)[C@@H](CCCCN)NC(=O)[C@H](N)CCCCN)C(=O)N[C@H](C)C(=O)N[C@H](Cc1c[nH]cn1)C(=O)N[C@H](CCCCN)C(=O)N[C@H](CC(C)C)C(=O)N[C@H](C)C(=O)N[C@H](CCCCN)C(=O)N[C@H](CCCCN)C(N)=O`, the HC50 was 185 ± 18.6 µM (haemolysis; human erythrocytes; 30 min, pH 7.4).
